# Measurements collected from several papers.
# Each line is one published result; not all experiments were run side by side. Values joined by “and” are separate records of one study, mostly repeats; a detail may differ. ± gives the spread as reported.
# MT-CYB/UQCRFS1: MT-CYB/UQCRFS1 (Homo sapiens, UniProt P00156+P47985)
# Sequence of UniProt P47985 (whole entry, looked up): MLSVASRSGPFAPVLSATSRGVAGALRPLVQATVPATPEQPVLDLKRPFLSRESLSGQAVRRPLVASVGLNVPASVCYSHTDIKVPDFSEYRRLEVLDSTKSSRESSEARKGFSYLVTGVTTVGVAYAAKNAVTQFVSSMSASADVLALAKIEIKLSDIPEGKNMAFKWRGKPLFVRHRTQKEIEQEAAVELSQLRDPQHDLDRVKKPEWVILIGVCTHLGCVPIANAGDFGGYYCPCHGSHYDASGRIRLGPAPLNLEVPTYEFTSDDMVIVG
# Sequence of UniProt P00156 (whole entry, looked up): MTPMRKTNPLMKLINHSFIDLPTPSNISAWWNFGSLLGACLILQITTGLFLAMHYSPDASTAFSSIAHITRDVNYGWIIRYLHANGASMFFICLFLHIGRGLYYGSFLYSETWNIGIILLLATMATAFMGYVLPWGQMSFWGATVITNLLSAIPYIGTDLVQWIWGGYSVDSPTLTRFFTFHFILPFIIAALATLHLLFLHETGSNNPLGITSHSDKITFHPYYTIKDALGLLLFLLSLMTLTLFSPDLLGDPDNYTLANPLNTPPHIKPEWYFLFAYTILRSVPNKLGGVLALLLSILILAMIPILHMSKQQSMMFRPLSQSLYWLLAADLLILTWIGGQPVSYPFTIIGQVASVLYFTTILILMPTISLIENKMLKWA
# T1: RNA aptamer; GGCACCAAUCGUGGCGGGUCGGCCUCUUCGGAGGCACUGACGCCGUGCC
# T2: preQ1-III riboswitch A84G (Faecalibacterium prausnitzii); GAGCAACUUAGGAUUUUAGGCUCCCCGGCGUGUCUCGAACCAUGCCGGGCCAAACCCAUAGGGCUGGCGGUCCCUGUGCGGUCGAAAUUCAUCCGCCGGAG
# Sequence of UniProt O76090 (whole entry, unmodified, looked up): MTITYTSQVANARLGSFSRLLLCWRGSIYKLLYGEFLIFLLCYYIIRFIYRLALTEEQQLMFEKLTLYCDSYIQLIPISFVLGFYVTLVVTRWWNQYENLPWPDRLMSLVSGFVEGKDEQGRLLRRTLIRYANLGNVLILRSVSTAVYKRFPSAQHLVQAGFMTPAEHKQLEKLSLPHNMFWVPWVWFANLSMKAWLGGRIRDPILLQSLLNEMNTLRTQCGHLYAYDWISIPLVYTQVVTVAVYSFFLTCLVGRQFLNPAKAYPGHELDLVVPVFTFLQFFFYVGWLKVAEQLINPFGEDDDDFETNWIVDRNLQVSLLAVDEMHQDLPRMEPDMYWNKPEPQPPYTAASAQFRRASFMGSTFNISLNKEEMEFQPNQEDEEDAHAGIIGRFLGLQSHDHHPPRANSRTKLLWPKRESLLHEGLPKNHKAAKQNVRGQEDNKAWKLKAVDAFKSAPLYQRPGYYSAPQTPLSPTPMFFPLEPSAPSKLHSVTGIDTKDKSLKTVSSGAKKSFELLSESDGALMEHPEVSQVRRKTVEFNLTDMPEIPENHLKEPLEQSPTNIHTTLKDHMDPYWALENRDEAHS
# Sequence of UniProt P51575 (whole entry, unmodified, looked up): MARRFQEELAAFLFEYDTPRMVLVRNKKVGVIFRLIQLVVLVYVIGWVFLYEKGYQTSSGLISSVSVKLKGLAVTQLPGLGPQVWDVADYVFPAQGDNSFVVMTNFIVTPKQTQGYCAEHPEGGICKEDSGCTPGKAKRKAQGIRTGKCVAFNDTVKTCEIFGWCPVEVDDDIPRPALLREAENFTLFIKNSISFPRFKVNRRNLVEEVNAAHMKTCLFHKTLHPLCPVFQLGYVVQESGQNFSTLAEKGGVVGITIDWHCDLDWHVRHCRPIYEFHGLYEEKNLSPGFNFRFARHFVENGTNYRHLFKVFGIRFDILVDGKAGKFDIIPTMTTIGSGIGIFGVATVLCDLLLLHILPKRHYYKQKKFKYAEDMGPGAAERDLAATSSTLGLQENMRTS
# Sequence of UniProt P36897 (whole entry, looked up): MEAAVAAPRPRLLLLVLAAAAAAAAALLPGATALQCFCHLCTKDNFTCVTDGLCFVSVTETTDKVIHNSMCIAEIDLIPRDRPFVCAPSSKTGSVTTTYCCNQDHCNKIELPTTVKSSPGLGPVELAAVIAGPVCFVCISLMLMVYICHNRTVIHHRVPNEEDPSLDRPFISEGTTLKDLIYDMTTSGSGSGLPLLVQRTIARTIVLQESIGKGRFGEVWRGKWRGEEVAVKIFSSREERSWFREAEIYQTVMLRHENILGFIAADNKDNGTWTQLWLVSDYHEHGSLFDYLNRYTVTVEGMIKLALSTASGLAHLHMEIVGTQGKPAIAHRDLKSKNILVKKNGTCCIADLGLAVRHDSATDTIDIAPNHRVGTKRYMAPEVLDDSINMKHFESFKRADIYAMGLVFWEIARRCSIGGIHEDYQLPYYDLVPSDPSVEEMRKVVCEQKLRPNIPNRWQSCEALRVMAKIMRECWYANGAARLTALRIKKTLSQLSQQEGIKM
# Sequence of UniProt Q16774 (whole entry, unmodified, looked up): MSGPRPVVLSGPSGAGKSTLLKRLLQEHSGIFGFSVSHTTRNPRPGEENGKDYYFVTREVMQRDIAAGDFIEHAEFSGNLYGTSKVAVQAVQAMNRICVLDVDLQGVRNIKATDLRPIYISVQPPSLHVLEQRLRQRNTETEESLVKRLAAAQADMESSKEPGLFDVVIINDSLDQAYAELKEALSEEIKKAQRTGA
# Sequence of UniProt Q9HBX9 (whole entry, unmodified, looked up): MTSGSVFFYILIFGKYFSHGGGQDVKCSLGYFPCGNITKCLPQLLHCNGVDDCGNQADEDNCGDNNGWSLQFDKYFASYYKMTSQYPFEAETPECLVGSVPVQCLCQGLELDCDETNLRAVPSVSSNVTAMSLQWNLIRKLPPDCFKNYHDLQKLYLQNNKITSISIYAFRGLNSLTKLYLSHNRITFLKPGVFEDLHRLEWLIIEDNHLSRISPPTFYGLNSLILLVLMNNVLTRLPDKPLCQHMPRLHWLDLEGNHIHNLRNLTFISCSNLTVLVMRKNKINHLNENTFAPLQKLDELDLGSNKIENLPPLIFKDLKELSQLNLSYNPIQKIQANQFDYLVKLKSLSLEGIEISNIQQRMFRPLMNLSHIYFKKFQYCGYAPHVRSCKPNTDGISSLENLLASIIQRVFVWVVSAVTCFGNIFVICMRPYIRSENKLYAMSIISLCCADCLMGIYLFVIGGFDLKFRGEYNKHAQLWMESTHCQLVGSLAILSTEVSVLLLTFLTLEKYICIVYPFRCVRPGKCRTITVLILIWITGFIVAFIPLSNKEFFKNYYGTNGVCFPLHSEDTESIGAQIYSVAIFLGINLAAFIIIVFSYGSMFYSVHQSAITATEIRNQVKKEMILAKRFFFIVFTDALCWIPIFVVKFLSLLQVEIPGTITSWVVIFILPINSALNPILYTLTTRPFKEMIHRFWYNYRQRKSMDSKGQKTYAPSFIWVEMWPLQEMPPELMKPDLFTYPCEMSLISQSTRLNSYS
# Sequence of UniProt P28566 (whole entry, looked up): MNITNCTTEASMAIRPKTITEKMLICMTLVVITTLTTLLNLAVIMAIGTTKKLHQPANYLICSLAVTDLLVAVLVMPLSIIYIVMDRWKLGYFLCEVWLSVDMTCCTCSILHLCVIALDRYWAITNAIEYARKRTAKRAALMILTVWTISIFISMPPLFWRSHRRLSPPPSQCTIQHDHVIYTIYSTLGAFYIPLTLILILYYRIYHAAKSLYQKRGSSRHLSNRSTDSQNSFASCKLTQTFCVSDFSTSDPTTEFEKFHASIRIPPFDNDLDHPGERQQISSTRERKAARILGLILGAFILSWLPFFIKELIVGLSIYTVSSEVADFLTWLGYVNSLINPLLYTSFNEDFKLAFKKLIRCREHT
# Sequence of UniProt Q96P66 (whole entry, looked up): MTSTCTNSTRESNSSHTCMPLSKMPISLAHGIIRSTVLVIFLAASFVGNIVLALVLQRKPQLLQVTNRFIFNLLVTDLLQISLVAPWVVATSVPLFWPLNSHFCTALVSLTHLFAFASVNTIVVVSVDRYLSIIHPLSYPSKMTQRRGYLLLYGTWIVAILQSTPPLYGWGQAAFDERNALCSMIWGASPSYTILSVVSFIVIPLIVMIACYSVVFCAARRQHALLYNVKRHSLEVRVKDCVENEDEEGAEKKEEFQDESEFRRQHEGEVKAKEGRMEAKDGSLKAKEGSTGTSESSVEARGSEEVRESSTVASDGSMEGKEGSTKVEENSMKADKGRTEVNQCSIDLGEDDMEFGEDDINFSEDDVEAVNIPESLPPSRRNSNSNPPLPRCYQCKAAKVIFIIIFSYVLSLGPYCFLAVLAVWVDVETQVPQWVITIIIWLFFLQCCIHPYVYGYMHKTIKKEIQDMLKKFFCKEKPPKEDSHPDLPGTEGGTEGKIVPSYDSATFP
# Sequence of UniProt P07339 (whole entry, looked up): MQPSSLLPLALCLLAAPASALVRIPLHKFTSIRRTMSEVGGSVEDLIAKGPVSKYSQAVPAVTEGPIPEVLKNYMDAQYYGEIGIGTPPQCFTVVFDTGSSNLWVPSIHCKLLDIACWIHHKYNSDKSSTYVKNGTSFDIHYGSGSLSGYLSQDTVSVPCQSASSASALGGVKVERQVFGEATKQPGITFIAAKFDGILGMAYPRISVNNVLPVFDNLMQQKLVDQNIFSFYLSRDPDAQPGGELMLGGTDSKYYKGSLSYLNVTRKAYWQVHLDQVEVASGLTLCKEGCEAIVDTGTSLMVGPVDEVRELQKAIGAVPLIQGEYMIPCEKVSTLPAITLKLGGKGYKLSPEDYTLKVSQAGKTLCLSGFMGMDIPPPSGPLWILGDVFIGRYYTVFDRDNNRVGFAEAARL
# Sequence of UniProt Q8K3Y3 (whole entry, looked up): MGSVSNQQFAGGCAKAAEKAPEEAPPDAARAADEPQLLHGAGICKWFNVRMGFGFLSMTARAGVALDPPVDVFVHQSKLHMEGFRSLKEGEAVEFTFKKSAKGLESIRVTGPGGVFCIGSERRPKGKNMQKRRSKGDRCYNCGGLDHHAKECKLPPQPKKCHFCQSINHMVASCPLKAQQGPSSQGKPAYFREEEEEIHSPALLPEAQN
SMILES,target,test,test system,setting,how to read,measurement,result
CC(C)CC(=O)N[C@H](C(=O)N[C@H](C(=O)N[C@@H](CC(C)C)[C@@H](O)CC(=O)N[C@@H](C)C(=O)N[C@@H](CC(C)C)[C@@H](O)CC(=O)NCCOCCOCCC(=O)NCCCC[C@H](NC(=O)CN1CCN(CC(=O)O)CCN(CC(=O)O)CC1)C(=O)O)C(C)C)C(C)C,"Cathepsin D (CTSD, Homo sapiens, UniProt P07339)",surface plasmon resonance,,,,association rate constant,971 M⁻¹ s⁻¹
NCCCCC(=O)O,"SLC6A6 (Homo sapiens, UniProt P31641, Y138A)","binding, microscale thermophoresis",,"1 mM, room temperature, together with: 50 nM labelled protein",higher = more binding,normalised MST signal,0.0487
CCCN(O)N=Nc1ccc(S(=O)(=O)Nc2nccs2)cc1,"α-glucosidase, rat intestine",enzyme activity,,"60 µg/mL, together with: 4-nitrophenyl α-D-glucopyranoside",,inhibition,20 ± 0.013%
CC[C@H](C)[C@@H]1NC(=O)[C@H](C)NC(=O)[C@H]([C@@H](C)CC)NC(=O)[C@H](CCC(N)=O)NC(=O)[C@H](C)NC(=O)[C@H](CCCNC(=N)N)NC(=O)[C@H](C(C)C)NC(=O)[C@H](CC(C)C)NC(=O)[C@H](CCC(=O)O)NC(=O)[C@H](CCCNC(=N)N)NC(=O)CNC(=O)[C@@H](NC(=O)[C@H](CC(C)C)NC(=O)[C@H](CCCCN)NC(=O)[C@@H](NC(=O)[C@@H](NC(=O)[C@H](CCC(=O)O)NC(=O)[C@H](CCC(=O)O)NC(=O)[C@H](CCSC)NC(=O)[C@H](Cc2c[nH]c3ccccc23)NC(=O)[C@H](CO)NC(=O)[C@@H](N)CC(=O)O)C(C)C)[C@@H](C)CC)CSSC[C@@H]2NC(=O)[C@@H](NC(=O)[C@H](CCCCN)NC(=O)[C@H](CC(N)=O)NC(=O)[C@H](C)NC(=O)[C@H](CC(C)C)NC(=O)[C@H](C)NC(=O)[C@H](CO)NC(=O)[C@H](Cc3ccc(O)cc3)NC(=O)[C@H](CC(C)C)NC(=O)[C@H](CCC(N)=O)NC(=O)c3ccc(-c4c5ccc(=[N+](C)C)cc-5oc5cc(N(C)C)ccc45)c(C(=O)[O-])c3)CSSC[C@H](NC(=O)CNC(=O)[C@H](C(C)C)NC(=O)[C@H](Cc3c[nH]cn3)NC2=O)C(=O)N[C@@H]([C@@H](C)O)C(=O)N[C@@H](CCCCN)C(=O)N[C@@H](CCCNC(=N)N)C(=O)N[C@@H](CO)C(=O)N[C@@H](CC(C)C)C(=O)N[C@@H](C)C(=O)N[C@@H](CCCNC(=N)N)C(=O)N[C@@H](Cc2ccccc2)C(=O)N[C@H](C(=O)O)CSSC[C@@H](C(=O)NCC(=O)N[C@@H](CCSC)C(=O)N[C@@H](CO)C(=O)N[C@H](C(=O)N[C@@H](Cc2c[nH]c3ccccc23)C(=O)N[C@@H](CO)C(=O)O)[C@@H](C)O)NC1=O,"Relaxin receptor 1 (RXFP1, Homo sapiens, UniProt Q9HBX9, F76A/Y80A)","binding, NanoBRET",,"concentration not given, together with: relaxin 1 µM",,fast dissociation fraction,64.6%
NC/C(=C\F)COc1cccc(Cn2c(=S)[nH]c(=O)c3[nH]cnc32)c1,"Peroxidasin homolog (PXDN, Homo sapiens, UniProt Q92626)",Amplex UltraRed,,5 µM,relative to: control,remaining activity,69.1%
CC[N+](CC)(CC)CC(=O)Nc1c(C)cccc1C,"PKD2L1 (Homo sapiens, UniProt Q9P0L9)","ion current, whole-cell patch clamp",,"100 µM, extracellular application",,time to steady-state inhibition,> 7 min
CC(C)[C@H](NC(=O)c1cc(-c2cnn3cc(-c4ccc(OCCN5CCCCC5)cc4)cnc23)cs1)C(F)(F)F,"TGFBR1 (Homo sapiens, UniProt P36897)",radiometric kinase,,15 nM,relative to: TGFBR1 over ULK1,relative inhibition,0.0455
Nc1ccc(C(=O)O)cc1,"BEST1, with wild-type BEST1 (Homo sapiens, UniProt O76090, L234P)","ion current, whole-cell patch clamp",HEK293 co-expressing mutant and wild-type,"concentration not given, voltage -20 mV",,current density,-3.13 pA/pF and -10.4 pA/pF and -2.85 pA/pF and -1.63 pA/pF and -4 pA/pF and -5.46 pA/pF
CC(=O)N[C@@H](CO)C(=O)N[C@@H](CC(C)C)C(=O)N[C@@H](CCC(=O)O)C(=O)N[C@@H](CCC(=O)O)C(=O)N1CCC[C@H]1C(=O)N[C@@H](Cc1c[nH]cn1)C(=O)N[C@@H](CO)C(=O)N1CCC[C@H]1C(=O)N[C@@H](CCC(=O)O)C(=O)N[C@H](C(=O)NCC(=O)N[C@@H](CCC(=O)O)C(=O)N[C@@H](CCCCN)C(=O)N[C@H](C(=O)N[C@H](C(=O)N[C@@H](C)C(=O)NCC(=O)N[C@@H](CCC(=O)O)C(=O)N[C@H](C(=O)N[C@@H](CC(N)=O)C(N)=O)C(C)C)C(C)C)C(C)C)[C@@H](C)O,"Kelch-like ECH-associated protein 1, Kelch domain (KEAP1, Homo sapiens, UniProt Q14145)","binding, ITC",,"pH 7, 298.15 K",,ΔH,-18.15 ± 0.094 kcal/mol
O=S(=O)(Nc1nccs1)c1ccc(N=NN(O)c2ccccc2)cc1,"α-glucosidase, rat intestine",enzyme activity,,"60 µg/mL, together with: 4-nitrophenyl α-D-glucopyranoside",,inhibition,12.5 ± 0.04%
NC(=O)NOCCCCCCCCCCCCCCCC[P+](c1ccccc1)(c1ccccc1)c1ccccc1.O=C([O-])C(F)(F)F,MT-CYB/UQCRFS1,"complex III-dependent respiration, Seahorse XF96",HCT-116,"10 µM, 24 h",relative to: control,oxygen consumption rate,25.5%
CN(CCO)c1ccc(/C=C(\C#N)c2ccc(C#N)cc2)cc1,"T1, RNA aptamer","fluorescence titration, Hill fit",,apparent,,Kd,205 nM
NC(=O)NOCCCCCCCCCC[P+](c1ccccc1)(c1ccccc1)c1ccccc1.O=C([O-])C(F)(F)F,MT-CYB/UQCRFS1,"complex III-dependent respiration, Seahorse XF96",HCT-116,"20 µM, 24 h",relative to: control,oxygen consumption rate,52.1 ± 4.24%
CN1CCN(c2cc(-c3ccncc3)c(-c3ccc4ccccc4c3)nn2)CC1,"C-C chemokine receptor type 5 (Macaca mulatta, UniProt P61813)","agonist, FLIPR calcium",cells expressing rhesus CCR5,12.5 µM,,activation,2.6%
CCCC(CCC)c1nc2c(Nc3ccc(C#CCCCCCCCCN)cc3)nc3ccccc3c2[nH]1,"HTR1E (Homo sapiens, UniProt P28566)",PDSP screening,,,,off-target affinity,inactive
CCN1CCC[C@H]1CNC(=O)c1c(O)c(Cl)cc(Cl)c1OC,"GPR101 (Homo sapiens, UniProt Q96P66)","β-arrestin recruitment, TANGO luminescence",,concentration not given,relative to: basal luminescence,log2 fold change,0.022
NC(=O)NOCCCCCCCCCCCC[P+](c1ccccc1)(c1ccccc1)c1ccccc1.O=C([O-])C(F)(F)F,MT-CYB/UQCRFS1,"complex III-dependent respiration, Seahorse XF96",HCT-116,"7.5 µM, 24 h",relative to: control,oxygen consumption rate,24.6 ± 2.19%
O=C1Nc2ccccc2C1O (stereo not drawn),"Dehaloperoxidase B, ferric (Amphitrite ornata, UniProt Q9NAV7)","product, HPLC",,"5 min, pH 7, 25 °C, enzyme 10 µM, together with: indole and H2O2 500 µM each",,product formed,4.83 M
O=c1nc(SCc2cc(F)cc(C(F)(F)F)c2)nc(SCc2ccc3nc(Cl)ccc3c2)[nH]1,"TOP2A (Homo sapiens, UniProt P11388)",DNA relaxation,,"31.25 µM, replicate 1",,relaxed DNA,96.7%
COc1ccc(F)cc1C(=O)NCc1ccc(-c2nn([C@@H](C)C(F)(F)F)c(N)c2C(N)=O)cc1,"BTK (Homo sapiens, UniProt Q06187)",differential scanning fluorimetry,,,relative to: apo protein,melting temperature shift,13.5 °C
C=CC(=O)N1CCC(COCC(=O)N2CCN(c3nc(-c4cnc(N)nc4C(F)F)nc(N4CCOC[C@@H]4C)n3)CC2)CC1,"TRPM6 (Homo sapiens, UniProt Q9BX84)",KINOMEscan,,1 µM,,remaining binding,65%
NC(=O)c1ccc[n+]([C@@H]2O[C@H](COP(=O)([O-])OP(=O)(O)OC[C@H]3O[C@@H](n4cnc5c(NCCNC(=O)CCCCCNC(=O)CCCCCNC(=O)CCCC[C@@H]6SC[C@@H]7NC(=O)N[C@@H]76)ncnc54)[C@H](O)[C@@H]3O)[C@@H](O)[C@H]2O)c1,"PARP4 (Homo sapiens, UniProt Q9UKK3)","substrate, DELFIA auto-modification",,,,apparent Km,14 µM
Nc1nc2c(ncn2[C@@H]2O[C@H](COP(=O)(O)O)[C@@H](O)[C@H]2O)c(=O)[nH]1,"GUK1 (Homo sapiens, UniProt Q16774, T83A)","binding, ITC",,,,ΔH,-11.9 ± 0.1 kcal/mol
O=C(N[C@H]1COC(=O)[C@@H](NC(=O)c2cccc([O-])c2[O-])COC(=O)[C@@H](NC(=O)c2cccc([O-])c2[O-])COC1=O)c1cccc([O-])c1[O-].[Fe+3],"uncharacterized protein (Bordetella pertussis, UniProt Q7VXW9)","siderophore binding, fluorescence quenching titration",,"pH 6.5, together with: ferric siderophore",,maximum fluorescence quenching,~60%
OC[C@H]1OC(O)[C@H](O)[C@@H](O)[C@@H]1O (stereo partly drawn),hexokinase yeast,substrate,,"pH 8.0, 25 °C, 1.5 mM MgCl2, together with: ATP varied",,Km,400 µM
Cc1ccc(S(=O)(=O)Nc2ccc(F)cc2NS(=O)(=O)c2ccc(C)cc2)cc1,"Protein lin-28 homolog A (Mus musculus, UniProt Q8K3Y3)",,,,,Hill slope,-1.1
Nc1ncnc2c1ncn2[C@@H]1O[C@H](COP(=O)(O)CP(=O)(O)OP(=O)(O)O)[C@@H](O)[C@H]1O,"P2X purinoceptor 1 (P2RX1, Homo sapiens, UniProt P51575, K140A)",calcium influx,,1 µM,relative to: ionomycin response,calcium influx,75.6% and 70.6% and 91.8% and 94%
NCc1c[nH]c2nc(N)[nH]c(=O)c12,"T2, preQ1-III riboswitch A84G (Faecalibacterium prausnitzii)",ITC,,"NaCl 100 mM, apparent, single-site fit",,Kd,27.4 nM
Nc1ncnc2c1ncn2[C@@H]1O[C@H](COP(=O)(O)OP(=O)(O)OP(=O)(O)O)[C@@H](O)[C@H]1O,"P2X purinoceptor 2 (P2rx2, Rattus norvegicus, UniProt P49653, K308A/K69A)",agonist,cells expressing WT-K308A-K69A concatemer,,,Hill coefficient,1.5 ± 0.2
NC(=O)NOCCCCCCCCCCCCCC[P+](c1ccccc1)(c1ccccc1)c1ccccc1.O=C([O-])C(F)(F)F,MT-CYB/UQCRFS1,"complex III-dependent respiration, Seahorse XF96",HCT-116,"6 µM, 24 h",relative to: control,oxygen consumption rate,22.9 ± 5.25%

# Excerpt of the above:
SMILES,target,test,test system,setting,how to read,measurement,result
Nc1ccc(C(=O)O)cc1,"BEST1, with wild-type BEST1 (Homo sapiens, UniProt O76090, L234P)","ion current, whole-cell patch clamp",HEK293 co-expressing mutant and wild-type,"concentration not given, voltage -20 mV",,current density,-3.13 pA/pF and -10.4 pA/pF and -2.85 pA/pF and -1.63 pA/pF and -4 pA/pF and -5.46 pA/pF
CC(=O)N[C@@H](CO)C(=O)N[C@@H](CC(C)C)C(=O)N[C@@H](CCC(=O)O)C(=O)N[C@@H](CCC(=O)O)C(=O)N1CCC[C@H]1C(=O)N[C@@H](Cc1c[nH]cn1)C(=O)N[C@@H](CO)C(=O)N1CCC[C@H]1C(=O)N[C@@H](CCC(=O)O)C(=O)N[C@H](C(=O)NCC(=O)N[C@@H](CCC(=O)O)C(=O)N[C@@H](CCCCN)C(=O)N[C@H](C(=O)N[C@H](C(=O)N[C@@H](C)C(=O)NCC(=O)N[C@@H](CCC(=O)O)C(=O)N[C@H](C(=O)N[C@@H](CC(N)=O)C(N)=O)C(C)C)C(C)C)C(C)C)[C@@H](C)O,"Kelch-like ECH-associated protein 1, Kelch domain (KEAP1, Homo sapiens, UniProt Q14145)","binding, ITC",,"pH 7, 298.15 K",,ΔH,-18.15 ± 0.094 kcal/mol
O=S(=O)(Nc1nccs1)c1ccc(N=NN(O)c2ccccc2)cc1,"α-glucosidase, rat intestine",enzyme activity,,"60 µg/mL, together with: 4-nitrophenyl α-D-glucopyranoside",,inhibition,12.5 ± 0.04%
NC(=O)NOCCCCCCCCCCCCCCCC[P+](c1ccccc1)(c1ccccc1)c1ccccc1.O=C([O-])C(F)(F)F,MT-CYB/UQCRFS1,"complex III-dependent respiration, Seahorse XF96",HCT-116,"10 µM, 24 h",relative to: control,oxygen consumption rate,25.5%
CN(CCO)c1ccc(/C=C(\C#N)c2ccc(C#N)cc2)cc1,"T1, RNA aptamer","fluorescence titration, Hill fit",,apparent,,Kd,205 nM
